# Published values of several laboratories.
# “And” joins repeats or separate records; there may be more than shown. ± marks the error that the study gave.
SMILES,cell line,assay,conditions,scale,inhibition
COc1cc(/C=C/C(=O)CC(=O)/C=C/c2ccc(O)c(OC)c2)ccc1O,BV-2,"nitric oxide production, Griess","10 µM, added: LPS 100 ng/mL",relative to: LPS alone,~50.6%
CCc1ccccc1-n1nc(C)c(C(=O)Nc2ccc3ccccc3n2)c1C,Wnt-HEK293,"Wnt/β-catenin signalling, inhibitor, luciferase reporter",1 µM,,> 70%
OCc1cnc(-c2nn(Cc3ccccc3)c3ccccc23)o1,RBE,cell viability,46 µM,,< 50%
CC[C@H](C)[C@@H]1NC(=O)[C@H](CCC(=O)O)NC(=O)[C@H](Cc2c[nH]c3ccccc23)NC(=O)[C@H](CCCCN)NC(=O)[C@H](CC(=O)O)NC(=O)[C@H](CCCCN)NC(=O)[C@@H](NC(=O)[C@@H](NC(=O)CNC(=O)[C@@H]2CCCN2C(=O)[C@H](CC(N)=O)NC(=O)CCCCCN)[C@@H](C)O)CSSC[C@@H](C(=O)N[C@@H](CC(C)C)C(=O)N[C@@H](CC(C)C)C(=O)N[C@@H](CC(N)=O)C(=O)NCC(=O)NCC(=O)O)NC1=O,LS174T,labelled peptide binding,"concentration not given, 1 h",relative to: unlabelled native peptide,73%
COc1cc(/C=C/C(=O)CC(=O)/C=C/c2ccc(O)c(OC)c2)ccc1O,"human enterocytes, cryopreserved",testosterone glucuronide formation,"50 µM, 0.75 h, added: testosterone 50 µM",,52% and ~50%
CC(C)N=C(N)c1ccc2nc(-c3ccc(OCc4cccc(COc5ccc(-c6nc7ccc(C(N)=NC(C)C)cc7[nH]6)cc5)c4F)cc3)[nH]c2c1,HEK293 cells CMV-luciferase,"reporter gene, CMV-luciferase counter-screen",concentration not given,,no effect
Cc1nn(-c2ccccc2F)c(C)c1C(=O)Nc1ccc2ccccc2n1,Wnt-HEK293,"Wnt/β-catenin signalling, inhibitor, luciferase reporter",1 µM,,> 70%
OCc1ncc(-c2nn(Cc3ccccc3)c3ccccc23)o1,RBE,cell viability,46 µM,,< 50%
Cc1nn(-c2nc3c(F)cc(F)cc3s2)c(O)c1C(c1ccc(C(F)(F)F)cc1)c1c(C)nn(-c2nc3c(F)cc(F)cc3s2)c1O,THP1-Dual,IFN luciferase reporter,"80 µM, added: HT-DNA",,101%
Cc1nn(-c2c(Cl)cccc2Cl)c(C)c1C(=O)Nc1ccc2ccccc2n1,Wnt-HEK293,"Wnt/β-catenin signalling, inhibitor, luciferase reporter",1 µM,,< 50%
CC(=O)O[C@@]12CO[C@@H]1C[C@H](O)[C@@]1(C)C(=O)[C@H](O)C3=C(C)[C@@H](OC(=O)[C@H](O)[C@@H](NC(=O)OC(C)(C)C)c4ccccc4)C[C@@](O)([C@@H](OC(=O)c4ccccc4)[C@H]21)C3(C)C,4T1,"cell invasion, Matrigel Transwell","concentration not given, 24 h, added: CXCL12 200 ng/mL",relative to: PBS,25%
Cc1ccc(C)c(-n2nc(C)c(C(=O)Nc3ccc4ccccc4n3)c2C)c1,Wnt-HEK293,"Wnt/β-catenin signalling, inhibitor, luciferase reporter",1 µM,,> 70%
CCN(CCO)CCCC(C)Nc1ccnc2cc(Cl)ccc12 (stereo not shown),human PBMC,"qRT-PCR, measured: MX1 mRNA","1000 nM, added: ssRNA",,6 ± 14%
